Measurements of several laboratories.
Each numbered part is a random draw from the data of one study; scales do not carry over between parts.

Block 1
Target: Sal-like protein 4, full length isoform A (SALL4, Homo sapiens, UniProt Q9UJQ4, residues 1-1053)
Chain of UniProt Q9UJQ4 (whole entry, looked up): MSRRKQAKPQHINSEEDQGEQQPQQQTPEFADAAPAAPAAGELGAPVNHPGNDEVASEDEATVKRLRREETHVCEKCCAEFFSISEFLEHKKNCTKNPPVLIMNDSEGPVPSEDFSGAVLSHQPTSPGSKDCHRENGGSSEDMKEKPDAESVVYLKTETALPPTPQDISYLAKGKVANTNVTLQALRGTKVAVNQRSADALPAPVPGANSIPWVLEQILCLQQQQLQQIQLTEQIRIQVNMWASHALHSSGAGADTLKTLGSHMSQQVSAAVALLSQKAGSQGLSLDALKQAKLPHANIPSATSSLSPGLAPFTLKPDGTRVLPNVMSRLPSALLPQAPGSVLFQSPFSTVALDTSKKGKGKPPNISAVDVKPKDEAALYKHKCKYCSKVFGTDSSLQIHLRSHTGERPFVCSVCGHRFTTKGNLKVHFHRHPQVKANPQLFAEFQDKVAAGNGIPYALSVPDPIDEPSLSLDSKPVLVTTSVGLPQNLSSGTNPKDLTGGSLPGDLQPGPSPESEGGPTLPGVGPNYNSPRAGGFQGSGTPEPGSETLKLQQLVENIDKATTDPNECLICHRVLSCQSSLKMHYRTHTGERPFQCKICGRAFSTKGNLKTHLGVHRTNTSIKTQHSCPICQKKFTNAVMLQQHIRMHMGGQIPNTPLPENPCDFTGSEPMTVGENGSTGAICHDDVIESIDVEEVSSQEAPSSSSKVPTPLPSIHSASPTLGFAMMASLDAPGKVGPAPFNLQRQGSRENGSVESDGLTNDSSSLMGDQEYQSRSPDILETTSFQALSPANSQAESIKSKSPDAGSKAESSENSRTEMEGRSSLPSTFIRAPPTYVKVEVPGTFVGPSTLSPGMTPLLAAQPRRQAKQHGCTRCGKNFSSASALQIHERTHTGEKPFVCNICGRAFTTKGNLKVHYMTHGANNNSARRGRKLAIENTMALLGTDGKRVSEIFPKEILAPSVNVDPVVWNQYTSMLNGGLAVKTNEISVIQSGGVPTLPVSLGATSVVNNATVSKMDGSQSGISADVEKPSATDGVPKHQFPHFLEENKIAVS
Method: universal PBM
Form: double-stranded DNA, one strand shown
Matrix: in vitro
Concentration: 600 nM
Setting: 8-mer, flanks averaged, mean of replicates
Reading: higher = stronger binding
`ACATTAGT` has an E-score of 0.0602.
`ACGTAGAT` gave an E-score of 0.143.
The E-score of `AAAGTTCC` is reported as -0.128.
`CGATATGA` gave an E-score of 0.256.
`GCCTCGGA` gave an E-score of -0.295.
`CTTTTGGA` has an E-score of 0.0275.
With `AGTAGGGA` the E-score was -0.0362.
`TAGGCCCA` gave an E-score of -0.198.

Block 2
Target: Interferon regulatory factor 3, full length, phosphomimetic (IRF3, Homo sapiens, UniProt Q14653, residues 1-427, S386D/S396D/S398D/S402D/T404D/S405D)
Method: protein-binding microarray
Form: double-stranded DNA, one strand shown
Matrix: in vitro
Concentration: 2540 nM top
Setting: 60-bp whole probe
Together with: salmon DNA 0.4 mg/ml
Baseline: random background probes
Reading: higher = stronger binding
All sequences stand within: GCCTAGCAC … GTCTTGATTCGCTTGACGCTGCTG
Target sequence (chain): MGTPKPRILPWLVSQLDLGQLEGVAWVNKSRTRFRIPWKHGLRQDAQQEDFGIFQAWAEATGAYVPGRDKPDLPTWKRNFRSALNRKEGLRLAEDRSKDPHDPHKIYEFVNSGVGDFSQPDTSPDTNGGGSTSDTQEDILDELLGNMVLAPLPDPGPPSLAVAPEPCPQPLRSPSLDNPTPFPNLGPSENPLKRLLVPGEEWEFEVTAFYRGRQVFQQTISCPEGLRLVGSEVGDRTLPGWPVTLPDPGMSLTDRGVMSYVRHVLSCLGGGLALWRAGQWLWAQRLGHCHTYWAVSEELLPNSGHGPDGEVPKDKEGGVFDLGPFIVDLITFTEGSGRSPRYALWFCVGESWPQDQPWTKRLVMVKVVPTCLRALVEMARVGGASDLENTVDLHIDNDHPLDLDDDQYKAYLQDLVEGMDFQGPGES
For `GACGGTTTCGGTCTCGGGGCGTGCTAG`, “fitted relative affinity” read 8.46 z-score.
For `GACGATTTCAGTATCGAGAGGTGCTAG`, “fitted relative affinity” read 1.99 z-score.
Under “fitted relative affinity”, `GACGAACTAGGGACTGGAGACGTGCTA` is recorded as -0.307 z-score.
Under “fitted relative affinity”, `GACGATCTCAGTATCGATACGTGCTAG` is recorded as 1.53 z-score.
`GACTGACTGGGGTTTCGGGACGTGCTA`: “fitted relative affinity” 0.535 z-score.
For `TTAGATATCGGGACTGGAATAGTGCTA`, “fitted relative affinity” read -0.0413 z-score.
Under “fitted relative affinity”, `TTAGGTTTCGACACTTGGTTAGTGCTA` is recorded as 2.18 z-score.
Under “fitted relative affinity”, `TTAGGACTGCACTTTCGGTTAGTGCTA` is recorded as 1.91 z-score.

Block 3
Cell line: HEK-293T
Organism: VSV pseudotyped with SARS-CoV-2 spike
Concentration: 10 µM
Time: 16 h
`C[C@@H]1C[C@H]2[C@@H]3C[C@H](F)C4=CC(=O)C=C[C@]4(C)[C@@]3(F)[C@@H](O)C[C@]2(C)[C@@]1(O)C(=O)CO` gave a pseudovirus infection of 82%.
With `CN(C)CCC=C1c2ccccc2C=Cc2ccccc21` the pseudovirus infection was 28.2%.
`CCOc1ccc(Cc2cc([C@@H]3O[C@H](CO)[C@@H](O)[C@H](O)[C@H]3O)ccc2Cl)cc1` has a pseudovirus infection of 95%.

Block 4
Target: Centromere-binding protein 1, full length, N-terminal tag (CBF1, Saccharomyces cerevisiae, UniProt P17106, residues 1-351)
Chain of UniProt P17106 (whole entry, looked up): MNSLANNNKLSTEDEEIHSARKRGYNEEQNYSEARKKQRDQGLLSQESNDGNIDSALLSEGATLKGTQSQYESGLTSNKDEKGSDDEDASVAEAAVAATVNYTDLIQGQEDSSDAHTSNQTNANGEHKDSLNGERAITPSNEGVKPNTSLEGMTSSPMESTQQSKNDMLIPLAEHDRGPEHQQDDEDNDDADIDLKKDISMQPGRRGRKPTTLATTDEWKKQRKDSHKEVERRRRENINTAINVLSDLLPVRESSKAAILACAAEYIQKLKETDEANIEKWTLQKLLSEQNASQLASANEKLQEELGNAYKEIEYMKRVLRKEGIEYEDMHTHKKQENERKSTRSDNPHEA
Method: protein-binding microarray
Form: double-stranded DNA, one strand shown
Matrix: in vitro
Concentration: 0.8 µM
Setting: whole 60-bp probe, no competitor
Reading: higher = stronger binding
All sequences stand within: … GTCTTGATTCGCTTGACGCTGCTG
The fluorescence intensity of `CTATCGTGGGAAATCCTGATGTCCAACGGTGAGTTC` is reported as 505 a.u.
The fluorescence intensity of `GAACCTAGACATTATCACGCAGCCCAAGTCTCTTAG` is reported as 558 a.u.
The fluorescence intensity of `GAAAGCCTGGGATGCCACGAGGATGTATTTTGGTAG` is reported as 568 a.u.
For `TGTACGAAGCTATATCACGTGCTTATAGTAGTTAGG`, the fluorescence intensity was 16900 a.u.
`GAACGTCGTTGTGCACGTGACACTCACCCCAATTAG` gave a fluorescence intensity of 21400 a.u.
The fluorescence intensity of `CTAGCACAGCAACATAACACCACCTTCTTTTAGTTC` is reported as 504 a.u.
The fluorescence intensity of `CTATCCGTGGTGCGTGATCTGATGAGAAATAAATTC` is reported as 1200 a.u.
`GAAATATGTCAGATCGACGTGACATGTAACATTTAG` has a fluorescence intensity of 762 a.u.

Block 5
Target: Replicase polyprotein 1ab, polymerase (rep, Severe acute respiratory syndrome coronavirus 2, UniProt P0DTD1)
Observed: enzyme activity
Action: inhibitor
Concentration: 20 µM
`CC(C)C[C@H](NC(=O)[C@@H](O)[C@H](N)Cc1ccccc1)C(=O)O` has an inhibition of -0.05%.
For `COc1cccc(CCc2ccccc2OCC[C@@H]2C[C@@H](O)CN2C)c1`, the inhibition was 2.39%.
`Cc1nc(NS(=O)(=O)c2ccc(N)cc2)oc1C` has an inhibition of -6.72%.
The inhibition of `N[C@@H](CSSC[C@H](N)C(=O)O)C(=O)O` is reported as -0.27%.
`COc1cc2c(CCNC(C)=O)c[nH]c2cc1Cl` has an inhibition of 3.28%.
With `C#Cc1cccc(Nc2ncnc3cc(OC)c(OCCCCCCC(=O)NO)cc23)c1` the inhibition was -4.37%.
The inhibition of `O=C(c1cccc(Br)c1)N1CCC(N2CCCC2)CC1` is reported as -2.21%.
With `Nc1ccccc1C(=O)O` the inhibition was 1.33%.
`CCC1(C)CC(=O)NC(=O)C1` has an inhibition of 1.05%.
The inhibition of `COc1cc2ncc(-c3ccccc3)nc2cc1OC` is reported as -8.55%.
With `Cn1c(=O)c2c(ncn2CC(O)CO)n(C)c1=O` (stereo not drawn) the inhibition was 6.41%.
The inhibition of `COc1cc2nccc(Oc3ccc(NC(=O)Nc4ccc(F)cc4F)c(F)c3)c2cc1OC` is reported as 0.57%.
For `O=C1CNC(=O)CN1`, the inhibition was -3.21%.
`COC1CCN(C(=O)c2cc(Cc3n[nH]c(=O)c4ccccc34)ccc2F)CC1` gave an inhibition of 3.24%.
With `CCN(CC)C(=O)N[C@H]1C[C@@H]2c3cccc4[nH]cc(c34)C[C@H]2N(C)C1` the inhibition was 3.76%.
`O=c1n(CC2CO2)c(=O)n(CC2CO2)c(=O)n1CC1CO1` (stereo not drawn) has an inhibition of -0.74%.
`NC(=O)CN1CC(c2ccccc2)CC1=O` (stereo not drawn) gave an inhibition of -7.24%.
The inhibition of `Cc1noc(C)c1-c1cc(O)cc(C(O)c2ccccc2)c1` (stereo not drawn) is reported as 0.97%.
`COc1ncc2cc(C(=O)Nc3cc(C(=O)NCc4cccc(Cl)c4)ccc3Cl)c(=O)[nH]c2n1` has an inhibition of 2.19%.
`c1ccc2c(CC3=NCCN3)cccc2c1` gave an inhibition of 14.6%.
For `C[C@H]1C[C@@H]2[C@H]([C@@H](O)C[C@@]3(C)[C@H]2CC[C@]3(O)C(=O)CO)[C@@]2(C)C=CC(=O)C=C12`, the inhibition was 25.3%.
The inhibition of `Oc1ccc([C@H]2COc3cc(O)ccc3C2)cc1` is reported as 2.63%.
`Cc1nc2ccccn2c(=O)c1CCN1CCC(C(=O)c2ccc(F)cc2)CC1` has an inhibition of -0.92%.
The inhibition of `Cc1cc(O)c2c(=O)c3c(O)cc(O)c4c5c(O)cc(O)c6c(=O)c7c(O)cc(C)c8c1c2c(c34)c(c78)c65` is reported as 99.5%.

Block 6
Target: Replicase polyprotein 1ab, main protease (rep, Severe acute respiratory syndrome coronavirus 2, UniProt P0DTD1)
Observed: enzyme activity
Action: inhibitor
Concentration: 20 µM
Setting: hit confirmation
`C=CCN1CCc2cc(O)c(O)cc2C(c2ccccc2)C1` (stereo not drawn) has an inhibition of 59.1%.
For `Cc1ccc(S(=O)(=O)N[C@@H](Cc2ccccc2)C(=O)CCl)cc1`, the inhibition was 108%.
For `O=S(=O)(/N=C/c1c(O)ccc2ccccc12)c1cccs1`, the inhibition was 14.7%.

Repeated from above (block 4):
The fluorescence intensity of `CTATCGTGGGAAATCCTGATGTCCAACGGTGAGTTC` is reported as 505 a.u.
The fluorescence intensity of `GAACCTAGACATTATCACGCAGCCCAAGTCTCTTAG` is reported as 558 a.u.
The fluorescence intensity of `GAAAGCCTGGGATGCCACGAGGATGTATTTTGGTAG` is reported as 568 a.u.
For `TGTACGAAGCTATATCACGTGCTTATAGTAGTTAGG`, the fluorescence intensity was 16900 a.u.
`GAACGTCGTTGTGCACGTGACACTCACCCCAATTAG` gave a fluorescence intensity of 21400 a.u.
The fluorescence intensity of `CTAGCACAGCAACATAACACCACCTTCTTTTAGTTC` is reported as 504 a.u.
The fluorescence intensity of `CTATCCGTGGTGCGTGATCTGATGAGAAATAAATTC` is reported as 1200 a.u.
`GAAATATGTCAGATCGACGTGACATGTAACATTTAG` has a fluorescence intensity of 762 a.u.
